# Measured values gathered from unrelated publications.
# Numbered parts are unrelated; each lists some results of a single study.

# Sample 1 — method: RNA Bind-n-Seq; molecule type: RNA; sample: in vitro; concentration: not given; setting: RNA with constant flanks, ends assumed; reference: input RNA pool; reading: higher = stronger binding
# Target: RING finger protein unkempt homolog, zinc fingers 1-6, GST-SBP tag (UNK, Homo sapiens, UniProt Q9C0B0, residues 30-357)
# Shared flanks, not repeated: GGGAGUUCUACAGUCCGACGAUC … CAACAGAGGAUUGAGCAUCA
# Residues (chain): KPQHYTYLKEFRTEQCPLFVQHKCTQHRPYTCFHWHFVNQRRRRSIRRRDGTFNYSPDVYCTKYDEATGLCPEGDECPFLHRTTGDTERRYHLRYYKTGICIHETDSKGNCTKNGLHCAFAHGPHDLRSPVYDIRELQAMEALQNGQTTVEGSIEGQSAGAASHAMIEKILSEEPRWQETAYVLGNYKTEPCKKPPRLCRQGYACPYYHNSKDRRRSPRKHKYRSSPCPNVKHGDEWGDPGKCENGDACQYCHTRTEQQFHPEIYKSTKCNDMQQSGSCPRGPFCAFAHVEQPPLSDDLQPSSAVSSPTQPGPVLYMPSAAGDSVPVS
Sequence,bound/input enrichment
UGUCGGGUGGCUUAUCUGUGGGUGCCAUGGGUGAUGAUGUUCAUUUUAAGCUUUUGCCUGCCGUACAAGCACAUAAUGCUACUGAACGUUUUUCCACUUGGAGACUGUGAGCUGGUUGCU,0.181 ratio
UCCUUUCAGUUUUUAUUAAUCUACUGUAUCAAUAAAAUUCUGUAAUUUGAAUGAGUUUUUAACCGUCCCGAAUGUUAUUGUGUAUAGAUAUUUCCUCUUGAACGUUAUGUUCAGAAAAUG,0.746 ratio
UGUUAUAUCACACCAAAGAGACCUCGAUCUUCUGCUAAAGAGUCACAUUACAAAUCUGCUGUCCGCAAGGACUUUCUCACUGAAGGAAAGGCAUCUGAUAGAACUAGCAGACAGCUGUUA,0.205 ratio
CUGAAAUCUUUGGAGACUAUGCCUCCAGAGACGUCAAAGACCACGCUGGUAGAGCUUCCCACCGCAAAAGUGGUUGAGCCAUCAGAAACCCUCACGAUAGUGUCAGAGACACCUACUGAG,0.0723 ratio
GAAAUCCAUAUUUAUUUUGUAAUUAACUGUCAAGCCUGUGGAUGAUUUUUUUGAACUUGGCCGUUCAUAAAGGUUUACAGUGAAUAAAAGGAUAUCAUCUUGAGUAUAGCAAUAUCAAAA,0.551 ratio
GUCCUUAUUGAUCCUUUUUCUUGGCGUUACCAUUUUUGAAGCAAAGUUAACCUAGCUUUCCCGUUUGAGCUUUCUUUUUGGCCGUCUUUAAAAAAAUUUUUUUUUUUAAUCUAUAAAAUA,1.64 ratio
CUGUAGUCCUCAGAAAGGAAGCUCCAGGACAUUUCAUGACUAUAAUGCAUGCACUAUUUAUACCGACUGACCUGGCUUUAAAAGAUGGAGCCUGGCAAGUUCCUCACAUAAUCAAUGUAU,0.116 ratio
AAGUAGCAUAUGACUGGAAACUAUAUUCAGUGCACUUUCUCCAAAAGACUACCCAGAAAAACCGACUUAUUUUCAAAUACCAGUUAUCAAGAUAUAUUAAAUAGCUGUAUUGUUUAGAAU,1.18 ratio
AGGAGGAGGUUUGCUUCCCGGAUCAUAGAUAGUCUGUUUAAUACAGUAACUGAUAAGAAGACCGCUAUUUUGGGAUUUGCAUUCAAAAAGGACACUGGUGAUACAAGAGAAUCUUCUAGU,5.41 ratio
UCCCGCCUACAGAAAGAUUUUGAGAGACAUUUUAAGGACCUCAGGUUCAUUAAAAAGGACUCCGAACUUUUCUCAAAUCCAUUUAGCUUUAAACCGGAAUAUGCGCCUAUUUCUGUAAGA,2.77 ratio
GGAUUGUAGAUUUUUGCUUUUUCUUUUUGUUUUUAAAACUUAUUCCAAUUGCUAAAUUGGCCGUUUUUCAGUCUUUAUAAAUACAGGAUUAAAAAUAUAUAUACAGUUAUAUGAAAUGUU,0.877 ratio

# Sample 2 — method: protein-binding microarray; molecule type: double-stranded DNA, one strand shown; sample: in vitro; concentration: 0.8 µM; setting: whole 60-bp probe, no competitor; reading: higher = stronger binding; shared flanks, not repeated: … GTCTTGATTCGCTTGACGCTGCTG
# Target: Centromere-binding protein 1, full length, N-terminal tag (CBF1, Saccharomyces cerevisiae, UniProt P17106, residues 1-351)
# UniProt P17106, sequence (whole entry, looked up): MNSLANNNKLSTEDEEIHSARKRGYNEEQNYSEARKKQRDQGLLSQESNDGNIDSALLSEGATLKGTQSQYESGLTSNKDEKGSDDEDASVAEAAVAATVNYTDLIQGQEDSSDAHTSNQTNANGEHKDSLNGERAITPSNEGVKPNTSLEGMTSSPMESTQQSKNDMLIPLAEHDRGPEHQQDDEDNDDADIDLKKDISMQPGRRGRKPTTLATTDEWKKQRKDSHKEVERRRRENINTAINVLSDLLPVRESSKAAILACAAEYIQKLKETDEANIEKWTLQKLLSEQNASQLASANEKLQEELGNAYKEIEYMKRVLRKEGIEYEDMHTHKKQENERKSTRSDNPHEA
Sequence,fluorescence intensity [a.u.]
GAACAGATATTAGGTGGTGGTACCAGGGCCTGCTAG,473
GAATTACCTCCTATTCTCGTGCCTGAGCAGCGATAG,552
CTAAAGAGCCGTACGTGAGTGAGAGGAGATCCGTTC,495
GAACGTTATTAGTTTGAACTCACGTGTTGCTGCTAG,4890
CTAGTTGAAATTGCTCTCGTGAGGTACATACTTTTC,535
TGTACGAAGCTATATAACATCAGTATAGTAGTTAGG,543
GAAGGTAAGACTAGTAACGTCACATCGAAGTCATAG,520
GAATCTCTTCTGAGTCACGAAATCAACAGTAATTAG,644
GAAGAATGTTGCCTTCACATGTTAATGAATGAATAG,717
CTATTGTTTTTAGATCACGATAGCACATTTGAGTTC,994
CTAGACCAGCTAAAACACGTTGAAAGCAGATATTTC,578
GAAATTATGGTATCCCACGTGATTGAGTGTAACTAG,6620
CTAGCTTTGCATCCTTACGTGCGTGAGATGGCATTC,503
CTAAGGGTACATTGCATCATGACTATTCGTGGTTTC,511
GAATAAGTAATCATACACGTGAAAAGCACGTGATAG,14300
GAACATCTCGTAGATCACCAGGGCACACAACAATAG,601
CTAAGGGTCATTATTCACGATATGTTCAACTGTTTC,540
CTAGAAACTGCCCATCAGGAGATATTTTCGCACTTC,528
CTAGGGCGCTGGGGACTCGTGCCCATCCGGGACTTC,569
CTAAAGGCAGAGAATCACGATTGATAAAGATCATTC,528
GAACAACCAGCCGCAGACGTGAGTTGATCTTTTTAG,480
CTAAATGGTTTTTATCACGTCCTAACGACATCATTC,628
CTAGCATCTAGAACAGCTGAGATGAAAGAGGATTTC,546
CTAAGGTCCCCTCACCACGAAAATCCAAGATTTTTC,468
GAAGAATGCCAGAATCATCAGCTGTTTCTCTTCTAG,552

# Sample 3 — method: RNA Bind-n-Seq; molecule type: RNA; sample: in vitro; concentration: 365 nM; reference: no-protein control; reading: higher = stronger binding
# Target: RNA binding protein fox-1 homolog 2, RRM domain, GST-SBP tag (RBFOX2, Homo sapiens, UniProt O43251-10, residues 100-194)
# Setting: natural RNA segment, single round, ends assumed
# Shared flanks, not repeated: GGGAGUUCUACAGUCCGACGAUC … UGGAAUUCUCGGGUGCCAA
# Residues (chain): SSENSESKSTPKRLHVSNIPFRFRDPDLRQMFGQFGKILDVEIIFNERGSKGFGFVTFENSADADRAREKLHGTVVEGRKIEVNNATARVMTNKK
Sequence,RBNS enrichment (R)
GAAGACAGUCUUCGAUCGGCACAAGAUGCUCAGCUAGAUGGGCUGGUGUGGUUGGGUCAAGGCCCCAACACCAUGGCUGCCAGCUUCCAGGCUGGACAAAGCAGGGGGCU,0.377
AGGAGAUCUGGGGGAAGAUAUUGCCAGUAAUUAAACAUGAAUGAAGAUAGGUUGUAAACUGAAUGCUGUGAUAAUACUCUGUAUUCUUUAUGGAAAAUGUUGUCCUGUAC,3.03
AGGGACCCUCUGUGCCUUCUUCUUUGUUUUGUGAUAAACAUAACUUGCCAACAGUCUCUAUGCUUAUUUACAUCUUCUACUGUUCAAACUAAGAGAUUUUUAAAUUCUGA,0.505
GCCCUGUGCCCCUCUGUCCGCCUCUUCACCGCUGGCAGAGGGCAGGCUGCAUGCAGUGGCGGCUGCUGGGCCCUGCCCAGCCCCAGGACUCUGCGCGAUAUCAAUACUGG,1.28
UGAGUGCCUUUUUGAACGCUGCUCCACAGGGCCUGGGUUUUCUUGAGCUCUUCUGUCCAAAGAUGGCUGCGGGCUAAGCAAGGUCCUGCCCUGGGUGGAUACUUGAACCA,0.233
GUAUCUGAGAAACUAAACAUGUAUUAAAUGUGCUUUUUAAAUAAAAGCUCAUAACACAACUAACCAAGGCACUGGUGCCUGAGCUGUUAAAAGGAUGUUUCUUUGGGAUC,0.357
AGUGAACACAGGCUGCGAUGCUCUGGACAUGUGUGCAUGAGCACGCCGUGGACUCUCGUGCAGGACUUGGGACUCGUGCUGAAGCCUUGGGGUCAAGGAACAUUUCAGUG,0.805
UAUUGCAGGUAUCACAGCCUAAAGAAAUUAUCUUUUUGCAAAAGAAAUAUUAAAUGAUUUAGCAGUCUCCACGUGUGUUAAUGUUUCAAACGUGUAUCAUAAUGUGUAUA,0.415
CAACUUGAUGAAAAGAAAAUAAGAGACAUUGUAGUCCUUGCAGGGAUCUUGCUUAAAAUCAUUAAAAUGUUGCAGACAGUCCUAAGAGCCUGACUGGAAUGUAUUCAGUU,0.409
GAAAAUCACACCACCUGACAGGCCUUCUGGGCCUCCAAAGCCCAUCCUUGGGGUUCCCCCUCCCUGUGUGAAAUGUAUUAUCACCAGCAGACACUGCCGGGCCUCCCUCC,0.315
GAGGACUCCAGGCAGCUGUGCUCCCAGGGCUCAUGUUCUCUACUGGAUUAGGGAUAGGCACCUCUGAAAUCUCCACCCUGAUGAUUGGAAUGAAACGGAGUGAACAUGAG,15.7
UCCUGUCUGAUGCAUCCUUGAUGGCAAGCUUCAAAUCUGAUUUGGUAUCACCGAGGAAACCUUGCCCCCAUCACUCAGCAUUGCACUUAGAUACAGAAUGAGUUAGAUAA,0.948

# Sample 4 — method: protein-binding microarray; molecule type: double-stranded DNA, one strand shown; sample: in vitro; concentration: not given; reading: higher = stronger binding
# Target: Myc proto-oncogene protein, bHLH-zipper, MAX partner unstated (MYC, Homo sapiens, UniProt P01106, residues 368-449)
# UniProt P01106, sequence (368-449, looked up): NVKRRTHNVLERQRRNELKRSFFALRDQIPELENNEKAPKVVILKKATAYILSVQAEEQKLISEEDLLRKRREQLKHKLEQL
# Setting: k-mer, scored over probes, only values ≥0.25
Sequence,E-score
AACCTCGT,0.277
ACCGCGCC,0.252
CTCGTGTC,0.408
AATGTGTG,0.324
CGTGCCTA,0.265
CACCCCAC,0.353
ATGCCCGC,0.278
ATCATGTG,0.387
GCCACGCA,0.431
ACATGTCC,0.355
ACGCCATG,0.4
CATGTCCG,0.288
ACGAGGTC,0.326
CGTGGTCC,0.399
CATGCGTA,0.443
AAGCGTGA,0.282
CTCATGAC,0.281
GCATGTAA,0.318
CACACATG,0.434
CGCCACCC,0.378
CCATATGG,0.411
ACCGCATG,0.474
GCATGCAC,0.417
